Results from different studies.
Every numbered part comes from another study and shows a few of its results, in no order.

Study 1
Cell line: HEK-293T-ACE2
Tested at: concentration not given
Reference: vehicle
`CC(C)C[C@H](NC(=O)[C@H](Cc1ccccc1)NC(=O)c1cnccn1)B(O)O` gave a cell number of 71.6%.
For `OC[C@H]1O[C@@H](c2ccc(Cl)c(Cc3ccc(O[C@H]4CCOC4)cc3)c2)[C@H](O)[C@@H](O)[C@@H]1O`, the cell number was 103%.
For `[I-].[K+]`, the cell number was 102%.
`Cl.Cn1c(CCCC(=O)O)nc2cc(N(CCCl)CCCl)ccc21` gave a cell number of 103%.

Study 2
Target: PABPC1L2, full length, GST fusion (mouse, UniProt A0ABA7IW68)
Method: RNAcompete
Form: RNA
Matrix: in vitro
Tested at: 20 nM
Setting: 7-mer, probes averaged, single round
Reference: mean of 7-mers
Reading: higher = stronger binding
Construct (chain): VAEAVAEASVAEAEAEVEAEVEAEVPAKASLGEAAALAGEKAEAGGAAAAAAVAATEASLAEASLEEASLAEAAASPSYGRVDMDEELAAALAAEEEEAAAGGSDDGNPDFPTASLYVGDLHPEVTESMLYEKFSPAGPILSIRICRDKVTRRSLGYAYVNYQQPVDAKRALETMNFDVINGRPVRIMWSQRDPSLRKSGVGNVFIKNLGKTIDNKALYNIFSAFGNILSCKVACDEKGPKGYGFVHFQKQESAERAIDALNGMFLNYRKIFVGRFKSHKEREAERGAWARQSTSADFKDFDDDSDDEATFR
`AUCAAAU` gave a 7-mer Z-score of 0.117.
`GUGUUUA` gave a 7-mer Z-score of -0.347.
`GCUCCGC` has a 7-mer Z-score of -0.385.
With `CAUAUAC` the 7-mer Z-score was -0.11.
With `UACCUCC` the 7-mer Z-score was -0.407.
`AGGGACG` has a 7-mer Z-score of 0.273.
With `GCAUUAA` the 7-mer Z-score was 0.0895.
`AAUUGGG` gave a 7-mer Z-score of 0.541.

Study 3
Target: Hepatocyte nuclear factor 3-alpha (Foxa1, Mus musculus, UniProt P35582, residues 1-468, full length assumed)
Method: EMSA with sequencing
Form: double-stranded DNA, one strand shown
Matrix: in vitro
Tested at: 10 and 20 nM
Setting: whole designed probe, mean of two concentrations, ends assumed
Reference: negative control set to 0
Reading: higher = stronger binding
Residues (chain): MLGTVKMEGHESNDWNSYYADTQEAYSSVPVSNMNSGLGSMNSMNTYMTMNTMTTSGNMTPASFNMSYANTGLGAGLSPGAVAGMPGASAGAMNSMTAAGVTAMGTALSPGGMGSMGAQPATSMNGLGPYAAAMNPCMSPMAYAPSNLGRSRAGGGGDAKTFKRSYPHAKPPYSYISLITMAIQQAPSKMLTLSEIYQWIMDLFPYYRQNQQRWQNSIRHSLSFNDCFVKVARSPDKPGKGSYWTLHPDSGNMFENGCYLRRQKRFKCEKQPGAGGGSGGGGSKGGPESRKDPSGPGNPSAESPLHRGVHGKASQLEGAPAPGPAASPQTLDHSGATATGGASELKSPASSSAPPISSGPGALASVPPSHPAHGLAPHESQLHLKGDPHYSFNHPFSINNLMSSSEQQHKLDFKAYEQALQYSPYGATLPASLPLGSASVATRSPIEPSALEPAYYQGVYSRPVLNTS
For `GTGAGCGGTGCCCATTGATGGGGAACGTGGAGTTAATGCAGATTGACGCTGAAGTTCATGTGGGGGCACAGACGTCTGATGGTGCCCAAGAAACCCAGGAGACAAAACTGATGCTTCCCAGAGGACACTGCAGCATCCTCTAAAGCCGCTGTAATTAAGGTATGTGACACATGACCAGGAAGCAGACAGATGGACAAAAATGGAATATCTGGAAATAGATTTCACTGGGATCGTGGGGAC`, “normalised bound fraction” read 0.00489 ratio.
`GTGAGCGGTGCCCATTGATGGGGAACTCAACTGACTCACCCAGAGCAACTTCTAGTCCTGCAAGCTATGTTCATGGAGTGTCCTATGCAGGTGCATCCTTTTTTATCTTTTATACTGCATGTTTACTCTGTGTATTTTCTGTGTTTAGACTCATAAATACTTAACATTTTGTTACAATTTCCTACAGTGTTCAGTACAACAACATGTTGTATGGTTTATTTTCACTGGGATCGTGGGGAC`: “normalised bound fraction” 0.303 ratio.
`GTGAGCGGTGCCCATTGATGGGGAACCTTGATTTATGGCTAGAATATGACATACATGAGCATTTGCCTTTCCTAAGATAATTCACAAGCATCCCCCCAAAAAATATAGATAGGGATCAAAGTAAACAAACAAACAAACAAAAACAGAAGCAATTGAATTTGACCTTATAATGGTCATAAAGTGATGATGGACATGACCAAAGCCACAACATCAGTAGAATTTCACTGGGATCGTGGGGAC`: “normalised bound fraction” 0.542 ratio.
`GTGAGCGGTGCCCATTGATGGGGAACAGGTGAAGTCGGCACCCTTGTCTTTGAGCTCACACAGGTGGCTGAGCTAAATAAGTGCTGAAAGGAGCTGGGTGCACTCTCCTGAGTCACCTTTGTTGACTCTGGAAGCACTGTAAACTTGGCATCAGAAGGAGATTATAAAGTGCTTTTGTTCCTAAGCTTTATAAAGTGTGTGTGTATGCATGTGGGTTTCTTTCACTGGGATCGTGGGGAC` — result for “normalised bound fraction”: 0.175 ratio.
For `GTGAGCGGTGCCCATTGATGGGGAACCACTCATAGTCTTGCTATCCTTCATATACAGAGATGACCCTCCCAAGCCTAAAATCAACAGGGGGAGGCATAGAGCTGTCCTTCTGGCTCTAATGTTTGCTTTACCATCATCCACGCCCATTCTTAGTCCAGCATGTGAGAGCCAGTGTGAAGTGAGCAGAATATGGCATAAGTATGGAGTCATACATCCTTATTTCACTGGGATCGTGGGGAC`, “normalised bound fraction” read 0.349 ratio.

Study 4
Target: Replicase polyprotein 1ab, polymerase (rep, Severe acute respiratory syndrome coronavirus 2, UniProt P0DTD1)
Effect on: enzyme activity
Action: inhibitor
Tested at: 20 µM
With `C[C@]12C=CC(=O)C=C1CC[C@@H]1[C@@H]2CC[C@]2(C)OC(=O)CC[C@@H]12` the inhibition was 4.45%.
The inhibition of `CCC(C/C=C/c1ccccc1)(c1ccccc1)N(C)CC1CC1` (stereo not drawn) is reported as -1.29%.
For `CNC(=O)c1cccc2cc(Oc3ccnc4cc(OCC5(N)CC5)c(OC)cc34)ccc12`, the inhibition was -4.39%.
With `O=C(Nc1ccc(Cl)nc1)c1ccc(Cl)cc1` the inhibition was -9.78%.
The inhibition of `O=C1OC2(c3cc(I)c(O)c(I)c3Oc3c2cc(I)c(O)c3I)c2c(Cl)c(Cl)c(Cl)c(Cl)c21` is reported as 99.4%.
`CC1=CC[C@@H](C(C)(C)O)C[C@@H]1O` has an inhibition of -5.97%.
For `CNC(=O)O[C@H]1COc2ccc(N3CCN(C4COC4)CC3)cc2[C@@H]1NC(=O)c1ccc(F)cc1`, the inhibition was 2.09%.
For `CCOC(=O)C1=C[C@]2(CC)CCCN3CCc4c(n1c1ccccc41)[C@@H]32`, the inhibition was -7.36%.
`c1ccc2cc(C3=NCCN3)ncc2c1` gave an inhibition of 8.39%.
`COC1=C(OC)C(=O)C(CCCCCCCCCCO)=C(C)C1=O` gave an inhibition of -5.62%.
For `COc1ccc(NS(=O)(=O)c2sc3ccc(Cl)cc3c2C)cc1N1CCNCC1`, the inhibition was 12.6%.
The inhibition of `C[C@H](Cn1cnc2c(N)ncnc21)OCP(=O)(O)O` is reported as 16.9%.
`COc1cnc(-n2cnc(C)n2)c2[nH]cc(C(=O)C(=O)N3CCN(C(=O)c4ccccc4)CC3)c12` has an inhibition of 1.46%.
`O=c1[nH]c2ccccc2n1C1CCN(CCCC(c2ccc(F)cc2)c2ccc(F)cc2)CC1` has an inhibition of 13.4%.
`Cc1cc2c(cc1CC(=O)c1sccc1S(=O)(=O)Nc1onc(C)c1Cl)OCO2` has an inhibition of -2.65%.
With `CO[C@H]1CC[C@H](N(c2cc(C3=CCCCC3)sc2C(=O)O)C(=O)[C@H]2CC[C@H](C)CC2)CC1` the inhibition was 1.47%.
For `OC[C@H]1O[C@@H](Oc2ccc(O)cc2)[C@H](O)[C@@H](O)[C@@H]1O`, the inhibition was -2.49%.
For `CCCCCCCC[N+](C)(C)Cc1ccccc1`, the inhibition was -1.51%.
For `CC(=O)NC[C@H]1CN(c2ccc(N3CCSCC3)c(F)c2)C(=O)O1`, the inhibition was -0.92%.
With `NCCCC[C@@H]1NC(=O)[C@@H](Cc2c[nH]c3ccccc23)NC(=O)[C@H](c2ccccc2)NC(=O)[C@@H]2C[C@@H](OC(=O)NCCN)CN2C(=O)[C@H](Cc2ccccc2)NC(=O)[C@H](Cc2ccc(OCc3ccccc3)cc2)NC1=O` the inhibition was 15.2%.
The inhibition of `CCn1cc(-c2ccnc3[nH]c(-c4cccc(CN(C)C)c4)cc23)c(-c2ccc(NC(=O)N(C)C)cc2)n1` is reported as 4.76%.
The inhibition of `CC(=O)NCCc1c(Cc2ccccc2)[nH]c2ccccc12` is reported as -11.9%.
`NC(=O)N1c2ccccc2CC(=O)c2ccccc21` has an inhibition of -9.43%.
With `C[C@@H]1[C@H](O)[C@@H](C)/C=C/C=C/C=C/C=C/C=C/C=C/C=C/[C@H](O[C@@H]2O[C@H](C)[C@@H](O)[C@H](N)[C@@H]2O)C[C@@H]2O[C@](O)(C[C@@H](O)C[C@@H](O)[C@H](O)CC[C@@H](O)C[C@@H](O)CC(=O)O[C@H]1C)C[C@H](O)[C@H]2C(=O)O` the inhibition was 4.44%.
The inhibition of `C[C@H](N[C@@H](CCc1ccccc1)C(=O)O)C(=O)N1Cc2ccccc2C[C@H]1C(=O)O` is reported as -6.32%.

Study 5
Target: Replicase polyprotein 1ab, main protease (rep, Severe acute respiratory syndrome coronavirus 2, UniProt P0DTD1)
Effect on: enzyme activity
Action: inhibitor
Tested at: 20 µM
Setting: primary screen
For `C=C1/C(=C\C=C2/CCC[C@]3(C)[C@@H]([C@H](C)CCCC(O)(C(F)(F)F)C(F)(F)F)CC[C@@H]23)C[C@@H](O)C[C@@H]1O`, the inhibition was 26.6%.
With `COc1ccc2[n-]c([S@@+]([O-])Cc3ncc(C)c(OC)c3C)nc2c1.COc1ccc2[n-]c([S@@+]([O-])Cc3ncc(C)c(OC)c3C)nc2c1.O.O.O.[Mg+2]` the inhibition was 94.7%.
`CC1=C(C(=O)O)N2C(=O)[C@@H](NC(=O)[C@H](N)C3=CCC=CC3)C2SC1` (stereo partly drawn) has an inhibition of 25.4%.
With `CC(CN1CC(=O)NC(=O)C1)N1CC(=O)NC(=O)C1` (stereo not drawn) the inhibition was 101%.

Study 6
Target: TAR DNA-binding protein 43, full length, His tag (TARDBP, Homo sapiens, UniProt Q13148, residues 1-414)
Method: RNA Bind-n-Seq
Form: RNA
Matrix: in vitro
Tested at: 20 nM
Setting: 6-mer, flanks averaged, single round
Added: 150 mM LiCl
Reference: input library
Reading: higher = stronger binding
Under “6-mer enrichment (R)”, `GGUCCC` is recorded as 1.02.
`UUUGCA`: “6-mer enrichment (R)” 1.05.
`AUCUAA`: “6-mer enrichment (R)” 0.831.
Under “6-mer enrichment (R)”, `AUGAUU` is recorded as 0.943.
`GCAGUU`: “6-mer enrichment (R)” 0.981.

A few entries again (study 4):
`O=c1[nH]c2ccccc2n1C1CCN(CCCC(c2ccc(F)cc2)c2ccc(F)cc2)CC1` has an inhibition of 13.4%.
The inhibition of `C[C@H](Cn1cnc2c(N)ncnc21)OCP(=O)(O)O` is reported as 16.9%.
For `COc1ccc(NS(=O)(=O)c2sc3ccc(Cl)cc3c2C)cc1N1CCNCC1`, the inhibition was 12.6%.
`NC(=O)N1c2ccccc2CC(=O)c2ccccc21` has an inhibition of -9.43%.
For `CC(=O)NC[C@H]1CN(c2ccc(N3CCSCC3)c(F)c2)C(=O)O1`, the inhibition was -0.92%.
With `CO[C@H]1CC[C@H](N(c2cc(C3=CCCCC3)sc2C(=O)O)C(=O)[C@H]2CC[C@H](C)CC2)CC1` the inhibition was 1.47%.
